# Assay results from different studies.
# Each numbered part is a random draw from the data of one study; scales do not carry over between parts.

# Set 1
# Target: RNA binding protein fox-1 homolog 2, RRM domain, GST-SBP tag (RBFOX2, Homo sapiens, UniProt O43251-10, residues 100-194)
# Technique: RNA Bind-n-Seq
# Molecule type: RNA
# Sample: in vitro
# Tested at: 365 nM
# Notes: natural RNA segment, single round, ends assumed
# Relative to: no-protein control
# Reading: higher = stronger binding
# Shared flanks, not repeated: GGGAGUUCUACAGUCCGACGAUC … UGGAAUUCUCGGGUGCCAA
Oligonucleotide,RBNS enrichment (R)
UAACUGCUUCUUGGAGCUUUGGAAUAUUUUAUCCUGUAUUCUUGUUUGAAUUCCUCCUCUAUUUAAGAUAUAUACAUGGAAUCGAAGUGUUUAUGUAAUAGUUCUAUCCU,0.457
AUUUUUGGGAAAGCAACGAGGUAAAAAUUAUGUUUCUCAGAUGCACUGCUACUUUGGCGUUAUUACUGUGUUCUCAGAAACUCGUUGUGCACCACUAGGAAUUAGUAGUA,0.608
UCUCCACUGUUAAACUCUGGGGAGUGGUAUCAGCUUUUGAAACCCUGCUCUAGACUCUUACAAAAUGGCUACACUUAGCACAUACUCUGCCCUGGCUAUAUAUUAUAUUG,0.503
CCAUAAAGACUCCGUGUAACUGUGUGAACACUUGGGAUUUUUCUCCUCUGUCCCGAGGUCGUCGUCUGCUUUCUUUUUUGGGUUUCUUUCUAGAAGAUUGAGAAGUGCAU,0.529
AAUUUCCUUGUUGAGAACAGGAAAGUGGCCAGUAGCCAGGCAAGUCAUAGAAUUGAUUACCCGCCGAAUUCAUUAAUUUACUGUAGUGUUAAGAGAAGCACUAAGAAUGC,0.641
AUUCACCAGUUGAUAGACAUGUAGAUUGUUUUCAUGCUGCUGUGACCAUUUGUGUACAAGUGUUUGUGCAGACAUAUGUUUAACUUUUUAGGAAAUUGCCAGACUGUUUU,0.372
GGAACUAGAUAUGAGCUGUAUAAGAAGCAUAAUUGUGAACAAGUAGAUUGAUUGCCUUCAUAUACAAGUAUGUUUUAGUAUUCCUUAUUUCCUUAUUAUCAGAUGUAUUU,0.983
UGAGGUCGGCGUUAUUUCCUCUCUCCCCCCACGUCAUCCUCCUCCGACACUGACGUCCACCGUGCAUGUGGCUGAGGGAGAGAGCCAGCUGGUUGUUUCUGGUAUAGCUG,3.09

# Set 2
# Target: Histone acetyltransferase KAT6A, winged helix 2, GST fusion (KAT6A, Homo sapiens, UniProt Q92794, residues 85-181)
# Technique: protein binding microarray
# Molecule type: double-stranded DNA, one strand shown
# Sample: in vitro
# Tested at: not given
# Notes: 8-mer, flanks averaged, mean of 2 arrays, mostly near background
# Relative to: not given
# Reading: higher = stronger binding
# Construct (chain): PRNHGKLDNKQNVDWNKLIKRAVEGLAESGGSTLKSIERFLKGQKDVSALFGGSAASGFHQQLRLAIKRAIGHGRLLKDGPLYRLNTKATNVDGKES
Oligonucleotide,E-score
CCCCCTGA,0.0178
ATTCGCAG,0.122
GCACCATA,-0.048
TTCCGCAA,0.204
AGTCCCTG,-0.318
TAAGGAGA,-0.058
TGATTACA,0.055
ATTCCAAC,0.15

# Set 3
# Target: Sal-like protein 4, full length isoform A (SALL4, Homo sapiens, UniProt Q9UJQ4, residues 1-1053)
# UniProt Q9UJQ4, sequence (whole entry, looked up): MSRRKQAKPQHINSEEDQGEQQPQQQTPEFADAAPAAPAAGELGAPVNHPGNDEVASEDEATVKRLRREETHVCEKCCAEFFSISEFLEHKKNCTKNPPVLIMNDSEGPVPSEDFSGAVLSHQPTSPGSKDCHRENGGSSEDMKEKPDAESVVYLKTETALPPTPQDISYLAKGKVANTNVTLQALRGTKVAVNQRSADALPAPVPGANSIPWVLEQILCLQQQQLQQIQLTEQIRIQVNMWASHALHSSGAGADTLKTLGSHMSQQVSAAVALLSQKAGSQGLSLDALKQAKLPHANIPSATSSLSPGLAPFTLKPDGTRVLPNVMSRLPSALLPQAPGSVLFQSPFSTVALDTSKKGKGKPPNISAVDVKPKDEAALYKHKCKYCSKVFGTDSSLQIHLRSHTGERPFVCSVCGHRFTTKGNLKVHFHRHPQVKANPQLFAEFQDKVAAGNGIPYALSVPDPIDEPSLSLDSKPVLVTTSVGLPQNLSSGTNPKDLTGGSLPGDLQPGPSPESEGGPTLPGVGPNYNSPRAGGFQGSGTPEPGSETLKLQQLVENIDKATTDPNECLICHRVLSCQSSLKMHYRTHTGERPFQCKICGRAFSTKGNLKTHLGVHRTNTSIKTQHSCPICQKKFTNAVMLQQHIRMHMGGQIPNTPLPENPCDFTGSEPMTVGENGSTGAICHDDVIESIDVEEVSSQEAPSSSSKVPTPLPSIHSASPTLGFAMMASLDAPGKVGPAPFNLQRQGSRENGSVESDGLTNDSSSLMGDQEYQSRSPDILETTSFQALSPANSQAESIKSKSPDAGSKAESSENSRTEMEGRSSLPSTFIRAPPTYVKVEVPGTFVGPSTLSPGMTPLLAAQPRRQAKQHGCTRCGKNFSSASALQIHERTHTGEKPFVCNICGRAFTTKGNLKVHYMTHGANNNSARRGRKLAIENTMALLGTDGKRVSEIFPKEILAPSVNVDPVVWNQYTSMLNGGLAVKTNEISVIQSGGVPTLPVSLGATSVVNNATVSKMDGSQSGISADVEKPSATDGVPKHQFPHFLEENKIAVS
# Technique: universal PBM
# Molecule type: double-stranded DNA, one strand shown
# Sample: in vitro
# Tested at: 600 nM
# Notes: 8-mer, flanks averaged, mean of replicates
# Reading: higher = stronger binding
Oligonucleotide,E-score
CGTTCGGA,-0.205
GCCCCAAC,-0.2
CCTTTATA,0.231
GGGCTAAC,-0.244
ACAAGCAT,0.0946
CAGAGCCC,-0.214
CTATTTGA,0.194
AGGAGTTC,-0.0449

# Set 4
# Target: Replicase polyprotein 1ab, nsp13 helicase (rep, Severe acute respiratory syndrome coronavirus 2, UniProt P0DTD1)
# Mode: inhibitor
# Tested at: 20 µM
Structure (SMILES),inhibition
O=C(c1cccc(Br)c1)N1CCC(N2CCCC2)CC1,4.21%
O=c1cc(N2CCN(c3cccc(C(F)(F)F)c3)CC2)[nH]c(=O)n1C1CCCCC1,2.14%
C=CCN1CCc2nc(N)sc2CC1,-3.79%
Cc1ccc(-c2ccc(F)cc2COc2ccc(CCC(=O)O)cc2)cc1,5.11%
CC[C@@H]1C(=O)OC[C@@H]1Cc1cncn1C,-4.94%
Oc1cc(O)c2cc(O)c(-c3cc(O)c(O)c(O)c3)[o+]c2c1,71.8%
COc1ccc2cc1Oc1cc3c(cc1OC)CC[N+](C)(C)[C@H]3Cc1ccc(cc1)Oc1c(OC)c(OC)cc3c1[C@@H](C2)[N+](C)(C)CC3,-1.11%
C[C@@](Cc1ccc(O)c(O)c1)(NN)C(=O)O,2.42%
Nc1nnc(Sc2ncc([N+](=O)[O-])s2)s1,98.8%
N#C[C@@H]1C[C@@H]2C[C@@H]2N1C(=O)[C@@H](N)C12CC3CC(CC(O)(C3)C1)C2,9.63%
CO[C@H]1/C=C/O[C@@]2(C)Oc3c(C)c(O)c4c(O)c(c(/C=N/N5CCN(C6CCCC6)CC5)c(O)c4c3C2=O)NC(=O)/C(C)=C\C=C\[C@H](C)[C@H](O)[C@@H](C)[C@@H](O)[C@@H](C)[C@H](OC(C)=O)[C@@H]1C,8.04%
Cc1ncc(CSSCc2cnc(C)c(O)c2CO)c(CO)c1O,1.6%
Nc1nc(NC[C@H]2CC[C@H](CNS(=O)(=O)c3cccc4ccccc34)CC2)nc2ccccc12,15.4%
CC(C)OC(=O)N[C@H]1Cc2c(n(Cc3ccccn3)c3ccc(C#N)cc23)C1,13.4%
CC(=O)[C@]1(N)Cc2c(O)c3c(c(O)c2[C@@H](O[C@H]2C[C@H](O)[C@H](O)CO2)C1)C(=O)c1ccccc1C3=O,56.9%
Cc1c(N)nc([C@H](CC(N)=O)NC[C@H](N)C(N)=O)nc1C(=O)N[C@H](C(=O)N[C@H](C)[C@@H](O)[C@H](C)C(=O)N[C@H](C(=O)NCCc1nc(-c2nc(C(=O)NCCC[S+](C)C)cs2)cs1)[C@@H](C)O)[C@@H](O[C@@H]1O[C@@H](CO)[C@@H](O)[C@H](O)[C@@H]1O[C@H]1O[C@H](CO)[C@@H](O)[C@H](OC(N)=O)[C@@H]1O)c1cnc[nH]1,4.95%
O=C(O)CN(CCN(CC(=O)O)CC(=O)O)CCN(CC(=O)O)CC(=O)O,-1.46%
CCN(CC)Cc1nccn1-c1ccc([N+](=O)[O-])cc1C(=O)c1ccccc1Cl,1.65%
O=C(NNc1nc2cc(F)ccc2n2cccc12)c1cnccn1,0.68%
O=Nc1ccc(O)c2ncccc12,99.8%
CN(C)CCc1c[nH]c2ccc(Cn3cncn3)cc12,4.5%
C[C@H](CCC(=O)O)[C@H]1CC[C@H]2[C@@H]3C[C@H](O)[C@@H]4C[C@H](O)CC[C@]4(C)[C@H]3CC[C@]12C,5.92%
COc1ccc(CCC(=O)c2c(O)cc(O[C@@H]3O[C@H](CO)[C@@H](O)[C@H](O)[C@H]3O[C@@H]3O[C@@H](C)[C@H](O)[C@@H](O)[C@H]3O)cc2O)cc1O,7.2%
O=C(O)c1cc(O)c2ccc(Cl)cc2n1,-1.13%
CCn1cc(-c2cccc(C(F)(F)F)c2)c2sc(C(=N)NC3CCS(=O)(=O)CC3)cc2c1=O,0.76%

# Set 5
# Target: Interferon regulatory factor 5, full length, phosphomimetic (IRF5, Homo sapiens, UniProt Q13568-2, residues 1-514, K96S/S451D/S453D/S456D/S462D)
# Technique: protein-binding microarray
# Molecule type: double-stranded DNA, one strand shown
# Sample: in vitro
# Tested at: 250 nM
# Notes: 60-bp whole probe
# With: salmon DNA 0.4 mg/ml
# Relative to: random background probes
# Reading: higher = stronger binding
# Shared flanks, not repeated: GCCTAGCAC … GTCTTGATTCGCTTGACGCTGCTG
Oligonucleotide,log fluorescence
TTAGGTATCGAATATCGGTTAGTGCTA,5.75 z-score
GGTCCCACCTCTTGGTGGGAGTGCTAG,-0.79 z-score
GACGATTTCGGGTTTCGACACGTGCTA,5.85 z-score
TAAGGTTTCCTTTCCCTTTAGTGCTAG,1.88 z-score
GGCGGTATCGGGTTTCGGGACGTGCTA,4.76 z-score
TTAAATATCAGACTGGATTAGTGCTAG,0.331 z-score

# Further values, each from its own experiment
Compound,cell line,conditions,scale,measurement,result
CC1(C)O[C@@H]2C[C@H]3[C@@H]4C[C@H](F)C5=CC(=O)C=C[C@]5(C)[C@@]4(F)[C@@H](O)C[C@]3(C)[C@]2(C(=O)CO)O1,HEK-293T/ACE2,"concentration not given, 16 (unit not given)",relative to: vehicle,viability,103%

# A few entries again (set 2):
Oligonucleotide,E-score
TTCCGCAA,0.204
ATTCGCAG,0.122
GCACCATA,-0.048
